Assay results pooled from the literature.
Compare with care: the assays were run in different laboratories. Numbers after ± are the reported error.
T1: RNA aptamer; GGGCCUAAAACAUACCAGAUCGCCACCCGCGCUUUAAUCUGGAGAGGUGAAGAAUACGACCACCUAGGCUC
T2: RNA aptamer; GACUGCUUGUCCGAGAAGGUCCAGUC
T3: RNA riboswitch U41C (Lactobacillus rhamnosus); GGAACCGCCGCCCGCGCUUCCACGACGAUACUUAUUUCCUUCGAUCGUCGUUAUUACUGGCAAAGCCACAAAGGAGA

CC(=O)NCCN(CC(=O)NCCN(CC(=O)NCCN(CC(=O)NCCC(N)=O)C(=O)[C@@H](N)CCCNC(=N)N)C(=O)[C@@H](N)CCCCN)C(=O)[C@@H](N)Cc1ccccc1 — binding free energy ΔG° (HIV-1 TAR RNA; 25 °C): -8.29 ± 0.717 kcal/mol
CN1C(=O)[C@@H](Cc2ccc(O)cc2)NC(=O)CNC(=O)[C@H](Cc2ccc3ccccc3c2)NC(=O)[C@H](CCCNC(=N)N)NC(=O)[C@H]1CCCNC(=O)c1ccc(CNC(=O)CN2CCN(CC(=O)O)CCN(CC(=O)O)CCN(CC(=O)O)CC2)cc1 [gallium-68 labelled] — SUVmax (CXCR4 (Homo sapiens, UniProt P61073); PET/CT; human, left adrenal lateral limb nodule; 170 MBq, 60 min): 11
CC(=O)NCCN(CCC(=O)NCCN(CCC(=O)NCCN(CCC(=O)NCCC(N)=O)C(=O)[C@@H](N)Cc1ccccc1)C(=O)[C@@H](N)Cc1ccccc1)C(=O)[C@@H](N)CCCNC(=N)N — non-electrostatic TΔS° (HIV-1 TAR RNA): -0.244 ± 0.263 kcal/mol
CSCC[C@H](NC(=O)[C@H](CO)NC(=O)[C@@H](NC(=O)[C@H](CCC(N)=O)NC(C)=O)[C@@H](C)O)C(=O)N[C@H](C(=O)N[C@@H](CC(=O)O)C(=O)N[C@@H](Cc1ccccc1)C(=O)N[C@@H](Cc1ccc(O)cc1)C(=O)N[C@@H](Cc1c[nH]cn1)C(=O)N[C@@H](CO)C(N)=O)[C@@H](C)O — binding enthalpy ΔH (PCNA (Homo sapiens, UniProt P12004); isothermal titration calorimetry; concentration not given, pH 7.4, 25 °C, 300 mM NaCl, added: p21 peptide): -21 ± 3.35 kcal/mol
CC(=O)NCCN(CC(=O)NCCN(CC(=O)NCCN(CC(=O)NCCC(N)=O)C(=O)[C@@H](N)Cc1ccccc1)C(=O)[C@@H](N)CCCNC(=N)N)C(=O)[C@@H](N)CCCNC(=N)N — non-electrostatic TΔS° (HIV-1 TAR RNA): -6.45 ± 0.287 kcal/mol
CN(C)[C@@H]1C(=O)C(C(N)=O)=C(O)[C@@]2(O)C(=O)C3=C(O)c4c(O)cccc4[C@@](C)(O)[C@H]3C[C@@H]12 — Kd (T1, RNA aptamer; fluorescence titration; pH 7.5, 25 °C, MgCl2 10 mM): 0.77 nM
C=C[C@]12CCC(=O)C=C1CC[C@H]1[C@@H]3CC[C@H](C(C)=O)[C@@]3(C)CC[C@@H]12 — PKA activation (Membrane progesterone receptor epsilon (Paqr9, Mus musculus, UniProt Q6TCG2); pPKA/PKA immunoblot; MDA-MB-231 expressing Paqr9-GFP; 10 nM, 20 min; relative to: control): 158 ± 17.9%
NC(=O)C1CCNC(=O)C(CCCNC(=O)c2cnccn2)NC(=O)C(Cc2ccco2)NC(=O)C(CC=Cc2ccccc2)NC(=O)C=CC(=O)N1 (stereo not shown) — enrichment factor (PIM1 (Homo sapiens, UniProt P11309); DNA-templated library selection; one selection round): 0.91
COC(=O)[C@@]1(C)C=C(C(=O)Nc2cccc(C(=O)Nc3ccc(Nc4nccc(-c5cccnc5)n4)c(C)c3)c2)C(=O)CC1 — k4 (MAPK8 (Homo sapiens, UniProt P45983); binding, SPR; 15, 40, 70 nM, parallel kinetic model): 0.00035 s⁻¹
C=CC(C)(C)OCC1OC(OC2C3=C(C(C)COC(C)=O)CC(O)C3(C)C=C3C(COC)CCC3C(C)C2O)C(O)C(OC(C)=O)C1O (stereo not shown) — cooperativity factor (14-3-3 protein sigma, with TASK3 (SFN, Homo sapiens, UniProt P31947); protein-protein interaction, stabilizer, fluorescence polarization; added: FITC-labelled TASK3 peptide): 1000
COc1cc(C(=O)NC2CCC(N3CCN(CC4CCC5(CCCC5)C4)CC3)CC2)c(F)cc1Nc1ncc2c(n1)N(C1CCCC1(F)F)CC(F)(F)C(=O)N2C (stereo not shown) — inhibition (EPHA3 (Homo sapiens, UniProt P29320); cell-free assay, TR-FRET; 10 µM): 0.79%
Nc1cnn2ccc(-c3ccc4c(c3)CN([C@H]3CCC(=O)NC3=O)C4=O)nc12 — Dmax (Cereblon/Casein kinase I alpha (CSNK1A1/CRBN, Homo sapiens, UniProt P48729+Q96SW2); protein level, degrader, luciferase; MOLT-4): 31%
O=C(/C=C/c1ccc(O)cc1)c1c(O)cc(O)cc1O — ΔTm max (Chalcone isomerase-like protein 1 (CHIL1, Humulus lupulus, UniProt A0A2U7XUH7, A143F/V139F); binding, differential scanning fluorimetry; double mutant): 4.7 °C
CC(C)=CCCC(C)=CCc1cc(-c2coc3cc(OC4OC(C(=O)O)C(O)C(O)C4O)ccc3c2=O)ccc1O (stereo not shown) — Vmax (UGT1A9 (Homo sapiens, UniProt O60656); glucuronidation, substrate, recombinant enzyme): 776 pmol/min/mg
CS(=O)(=O)c1ccc(-n2nc(C(F)(F)F)cc2-c2ccc([123I])cc2)cc1 — uptake ratio (Ptgs2 (Rattus norvegicus, UniProt P35355); SPECT; rat Sprague-Dawley, carrageenan paw; relative to: inflamed over noninflamed paw): 1.7 fold
Nc1cccc2cn[nH]c12 — IC50 (Genome polyprotein, NS3 protease (Hepatitis C virus genotype 1b, UniProt P26663); protease activity, inhibitor): inactive
CSCC[C@H](NC(=O)[C@H](CO)NC(=O)[C@H](CC(N)=O)NC(=O)[C@H](CC(C)C)NC(=O)[C@H](CO)NC(=O)[C@H](CCCCN)NC(=O)CNC(=O)[C@H](CCCCN)NC(=O)[C@H](CC(=O)O)NC(=O)[C@H](Cc1c[nH]cn1)NC(=O)[C@H](CC(C)C)NC(=O)[C@H](CC(C)C)NC(=O)[C@H](CCC(N)=O)NC(=O)[C@H](Cc1c[nH]cn1)NC(=O)[C@H](CCC(=O)O)NC(=O)[C@H](CO)NC(=O)[C@@H](NC(=O)[C@H](C)N)C(C)C)C(=O)N[C@@H](CCC(=O)O)C(=O)N[C@@H](CCCNC(=N)N)C(=O)N[C@H](C(=O)N[C@@H](CCC(=O)O)C(=O)N[C@@H](Cc1c[nH]c2ccccc12)C(=O)N[C@@H](CC(C)C)C(=O)N[C@@H](CCCNC(=N)N)C(=O)N[C@@H](CCCCN)C(=O)N[C@@H](CCCCN)C(=O)N[C@@H](CC(C)C)C(=O)N[C@@H](CCC(N)=O)C(=O)N[C@@H](CC(=O)O)C(=O)N[C@H](C(=O)N[C@@H](Cc1c[nH]cn1)C(=O)N[C@@H](CC(N)=O)C(=O)N[C@@H](Cc1ccccc1)C(=O)N[C@@H](CCCCNC(=O)c1ccc2c(c1)C1(OC2=O)c2ccc(N(C)C)cc2Oc2cc(N(C)C)ccc21)C(N)=O)C(C)C)C(C)C — Emax (PTH1R (Homo sapiens, UniProt Q03431); cAMP formation, agonist, GloSensor; HEK293 GP2.3; relative to: (1-34)): 97 ± 6%
O=C([O-])CN1CCN(CC(=O)[O-])CCN(C(CCC(=O)NCCCCCN(CCCC[C@H](NC(=O)N[C@@H](CCC(=O)O)C(=O)O)C(=O)O)C(=O)c2ccc(I)cc2)C(=O)O)CCN(CC(=O)[O-])CC1.[68Ga+3] (stereo partly shown) — tumour-to-normal tissue ratio (FOLH1 (Homo sapiens, UniProt Q04609); PET/CT; prostate cancer patients, primary prostate cancer lesions; relative to: primary lesions over liver): 8.36 ± 7.84
C=C(C)C(=O)Nc1ccc(-c2c(-c3ccc(Oc4cccc(C)n4)cc3)c3c(N)ncnc3n2C)cc1 — fold potency loss (FGFR2 (Homo sapiens, UniProt P21802); kinase activity, Caliper; relative to: FGFR2 over 5): 40 fold
NC[C@@H]1O[C@H](O[C@H]2[C@@H](O)[C@H](O[C@@H]3[C@@H](O)[C@H](N)C[C@H](N)[C@H]3O[C@H]3O[C@H](CN)[C@@H](O)[C@H](O)[C@H]3N)O[C@@H]2CO)[C@H](N)[C@@H](O)[C@@H]1O — melting temperature change (T2, RNA aptamer; UV melting; 1 µM RNA, 10 µM molecule, pH 6.8, NaCl 100 mM): 20.2 °C
Cc1cc(O)c2c(c1)C(=O)c1cc3oc(=O)cc(-c4ccc(Cl)cc4)c3c(O)c1C2=O — inhibition (mushroom tyrosinase; enzyme activity; 25 µg/mL, added: L-DOPA): 13.2 ± 0.46%
Nc1ncnc2c1ncn2[C@@H]1O[C@H](CO)[C@@H](O[C@H]2O[C@H](CO)[C@@H](OP(=O)(O)O)[C@H](OP(=O)(O)O)[C@H]2O)[C@H]1O — maximal Ca2+ release (Itpr1 (Rattus norvegicus, UniProt P29994); DT40-IP3R1, permeabilized; relative to: ATP-dependent Ca2+ uptake): 72 ± 3%
C=C1C(=O)O[C@@H]2[C@H]3C(CO)=CC(=O)C3=C(C)C[C@H](OC(=O)Cc3ccc(O)cc3)[C@@H]12 — quenching rate constant Kq (MAL12 (Saccharomyces cerevisiae S288c, UniProt P53341); fluorescence quenching; 310 K): 9.11e+11 M⁻¹ s⁻¹
CNc1ccccc1C(=O)O[C@H]1C[C@H](n2cnc3c(N)ncnc32)O[C@@H]1COP(=O)(O)OP(=O)(O)O — pocket reverse rate constant (Unconventional myosin-Va (Gallus gallus, UniProt Q02440, D297C/G292C/I296C/S293C/V295G); stopped-flow FRET; 15 °C, added: MgCl2 10 mM): 1.55 ± 0.7 s⁻¹
COc1ccc(CC[N+](C)(C)CCCC(C#N)(c2ccc(OC)c(OC)c2)C(C)C)cc1OC (stereo not shown) — time to block (Potassium channel subfamily T member 2 (Homo sapiens, UniProt Q6UVM3); ion current, inhibitor, inside-out patch clamp; Xenopus oocytes; 100 µM): < 1 min
O=c1c(-c2ccc(OCc3ccc(F)cc3)cc2)coc2cc(OCc3ccc(F)cc3)cc(OCc3ccc(F)cc3)c12 — remaining activity (CD38 (Homo sapiens, UniProt P28907); hydrolase activity, fluorometric; 50 µM, added: ε-NAD+ substrate; relative to: untreated): 49 ± 1.5%
CC[C@H](C)[C@H](NC(=O)CNC(C)=O)C(=O)N[C@@H](CCCNC(=N)N)C(=O)N[C@@H](CCC(=O)O)C(=O)N[C@@H](C)C(=O)N[C@H](C(=O)N[C@@H](CC(C)C)C(=O)N[C@@H](CCCNC(=N)N)C(=O)N[C@@H](C)C(=O)N[C@@H](Cc1c[nH]c2ccccc12)C(=O)N[C@@H](CCC(=O)O)C(=O)N[C@@H](CCCNC(=N)N)C(=O)N[C@@H](CCCNC(=N)N)C(=O)N[C@@H](Cc1ccc(O)cc1)C(=O)NCC(=O)N[C@@H](Cc1ccccc1)C(=O)N1CCC[C@H]1C(=O)N[C@@H](CCCNC(=N)N)C(=O)N1CCC[C@H]1C(=O)N[C@@H](CC(C)C)C(=O)N[C@@H](CCCNC(=N)N)C(=O)N[C@@H](CO)C(=O)N[C@@H](CCC(=O)O)C(N)=O)[C@@H](C)O — binding stoichiometry (Antirepressor protein CarS (carS, Myxococcus xanthus, UniProt Q06911); ITC; concentration not given, pH 7.5, 25 °C): 0.92 ± 0.02
NCc1c[nH]c2nc(N)[nH]c(=O)c12 — Kd (T3, RNA riboswitch U41C (Lactobacillus rhamnosus); ITC; pH 7.0, NaCl 0.10 M): 1600 nM

Some of these lines once more:
CC(=O)NCCN(CC(=O)NCCN(CC(=O)NCCN(CC(=O)NCCC(N)=O)C(=O)[C@@H](N)CCCNC(=N)N)C(=O)[C@@H](N)CCCCN)C(=O)[C@@H](N)Cc1ccccc1 — binding free energy ΔG° (HIV-1 TAR RNA; 25 °C): -8.29 ± 0.717 kcal/mol
CN1C(=O)[C@@H](Cc2ccc(O)cc2)NC(=O)CNC(=O)[C@H](Cc2ccc3ccccc3c2)NC(=O)[C@H](CCCNC(=N)N)NC(=O)[C@H]1CCCNC(=O)c1ccc(CNC(=O)CN2CCN(CC(=O)O)CCN(CC(=O)O)CCN(CC(=O)O)CC2)cc1 [gallium-68 labelled] — SUVmax (CXCR4 (Homo sapiens, UniProt P61073); PET/CT; human, left adrenal lateral limb nodule; 170 MBq, 60 min): 11
CC(=O)NCCN(CCC(=O)NCCN(CCC(=O)NCCN(CCC(=O)NCCC(N)=O)C(=O)[C@@H](N)Cc1ccccc1)C(=O)[C@@H](N)Cc1ccccc1)C(=O)[C@@H](N)CCCNC(=N)N — non-electrostatic TΔS° (HIV-1 TAR RNA): -0.244 ± 0.263 kcal/mol
